Assay results from different studies.
Every numbered part comes from another study and shows a few of its results, in no order.
UniProt Q6PHR2, sequence (whole entry, looked up): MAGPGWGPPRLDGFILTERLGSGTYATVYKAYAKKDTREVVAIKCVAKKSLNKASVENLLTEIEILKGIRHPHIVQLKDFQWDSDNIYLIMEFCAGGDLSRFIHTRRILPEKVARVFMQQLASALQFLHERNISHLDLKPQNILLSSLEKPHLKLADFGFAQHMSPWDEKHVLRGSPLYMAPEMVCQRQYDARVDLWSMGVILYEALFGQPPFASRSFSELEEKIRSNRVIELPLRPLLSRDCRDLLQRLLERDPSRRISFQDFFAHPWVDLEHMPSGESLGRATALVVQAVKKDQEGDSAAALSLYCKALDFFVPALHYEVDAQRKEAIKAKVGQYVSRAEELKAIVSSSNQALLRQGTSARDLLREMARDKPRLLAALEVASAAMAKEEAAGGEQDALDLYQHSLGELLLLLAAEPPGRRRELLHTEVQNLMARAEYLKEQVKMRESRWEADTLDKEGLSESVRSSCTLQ
UniProt O14757, sequence (whole entry, looked up): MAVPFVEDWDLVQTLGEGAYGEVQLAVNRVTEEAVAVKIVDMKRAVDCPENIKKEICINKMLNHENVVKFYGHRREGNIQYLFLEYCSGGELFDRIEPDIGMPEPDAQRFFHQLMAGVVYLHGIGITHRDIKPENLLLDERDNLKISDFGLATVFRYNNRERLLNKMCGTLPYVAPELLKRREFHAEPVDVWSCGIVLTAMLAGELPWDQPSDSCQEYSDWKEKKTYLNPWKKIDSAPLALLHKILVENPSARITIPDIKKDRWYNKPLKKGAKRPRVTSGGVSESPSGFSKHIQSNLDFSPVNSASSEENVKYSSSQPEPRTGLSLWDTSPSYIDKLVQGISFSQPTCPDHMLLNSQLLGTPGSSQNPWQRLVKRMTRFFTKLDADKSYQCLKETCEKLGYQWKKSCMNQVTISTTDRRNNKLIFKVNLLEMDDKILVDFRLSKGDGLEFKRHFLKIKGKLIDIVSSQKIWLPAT
UniProt Q13470, sequence (whole entry, looked up): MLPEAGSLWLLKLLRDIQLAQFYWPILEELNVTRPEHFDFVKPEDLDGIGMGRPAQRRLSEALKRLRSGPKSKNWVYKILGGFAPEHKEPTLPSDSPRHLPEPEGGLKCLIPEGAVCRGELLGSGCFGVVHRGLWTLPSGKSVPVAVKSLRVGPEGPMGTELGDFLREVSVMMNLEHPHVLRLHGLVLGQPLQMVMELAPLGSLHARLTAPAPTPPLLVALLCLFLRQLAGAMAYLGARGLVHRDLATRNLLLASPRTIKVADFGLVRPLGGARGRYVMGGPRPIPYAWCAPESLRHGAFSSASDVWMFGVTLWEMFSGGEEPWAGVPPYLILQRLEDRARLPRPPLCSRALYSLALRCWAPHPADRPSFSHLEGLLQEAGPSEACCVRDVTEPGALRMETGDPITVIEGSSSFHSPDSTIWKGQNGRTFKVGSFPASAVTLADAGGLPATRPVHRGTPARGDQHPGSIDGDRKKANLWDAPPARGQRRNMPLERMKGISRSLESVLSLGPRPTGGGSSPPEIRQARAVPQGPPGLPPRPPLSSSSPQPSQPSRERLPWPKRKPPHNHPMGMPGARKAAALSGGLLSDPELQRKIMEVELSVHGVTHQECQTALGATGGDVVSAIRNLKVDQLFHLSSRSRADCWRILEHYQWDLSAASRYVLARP
UniProt P10721, sequence (whole entry, unmodified, looked up): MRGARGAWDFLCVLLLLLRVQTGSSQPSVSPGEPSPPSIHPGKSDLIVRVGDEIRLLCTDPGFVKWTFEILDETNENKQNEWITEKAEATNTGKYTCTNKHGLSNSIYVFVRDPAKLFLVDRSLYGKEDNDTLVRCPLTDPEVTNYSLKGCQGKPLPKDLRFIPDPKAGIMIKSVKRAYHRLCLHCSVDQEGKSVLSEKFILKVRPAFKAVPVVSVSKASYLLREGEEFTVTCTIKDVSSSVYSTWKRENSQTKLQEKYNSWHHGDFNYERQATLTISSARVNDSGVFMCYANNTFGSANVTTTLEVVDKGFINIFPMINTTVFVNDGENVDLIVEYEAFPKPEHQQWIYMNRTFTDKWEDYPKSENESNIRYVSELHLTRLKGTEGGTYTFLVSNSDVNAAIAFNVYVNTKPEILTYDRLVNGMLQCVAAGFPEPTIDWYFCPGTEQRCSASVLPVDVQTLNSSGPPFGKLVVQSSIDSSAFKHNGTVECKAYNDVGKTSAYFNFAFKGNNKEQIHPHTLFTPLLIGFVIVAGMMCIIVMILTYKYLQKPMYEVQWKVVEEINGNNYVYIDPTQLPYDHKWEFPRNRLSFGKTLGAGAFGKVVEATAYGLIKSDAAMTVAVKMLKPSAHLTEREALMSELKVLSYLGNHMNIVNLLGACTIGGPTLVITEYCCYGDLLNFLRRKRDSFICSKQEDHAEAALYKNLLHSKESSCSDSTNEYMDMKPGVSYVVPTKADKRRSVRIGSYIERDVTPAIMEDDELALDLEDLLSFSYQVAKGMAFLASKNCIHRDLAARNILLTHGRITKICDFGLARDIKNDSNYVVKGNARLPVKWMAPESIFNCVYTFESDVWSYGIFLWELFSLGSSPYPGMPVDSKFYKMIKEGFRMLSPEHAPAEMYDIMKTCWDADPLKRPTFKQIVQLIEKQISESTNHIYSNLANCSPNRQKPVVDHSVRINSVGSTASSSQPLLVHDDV
UniProt P37023, sequence (whole entry, looked up): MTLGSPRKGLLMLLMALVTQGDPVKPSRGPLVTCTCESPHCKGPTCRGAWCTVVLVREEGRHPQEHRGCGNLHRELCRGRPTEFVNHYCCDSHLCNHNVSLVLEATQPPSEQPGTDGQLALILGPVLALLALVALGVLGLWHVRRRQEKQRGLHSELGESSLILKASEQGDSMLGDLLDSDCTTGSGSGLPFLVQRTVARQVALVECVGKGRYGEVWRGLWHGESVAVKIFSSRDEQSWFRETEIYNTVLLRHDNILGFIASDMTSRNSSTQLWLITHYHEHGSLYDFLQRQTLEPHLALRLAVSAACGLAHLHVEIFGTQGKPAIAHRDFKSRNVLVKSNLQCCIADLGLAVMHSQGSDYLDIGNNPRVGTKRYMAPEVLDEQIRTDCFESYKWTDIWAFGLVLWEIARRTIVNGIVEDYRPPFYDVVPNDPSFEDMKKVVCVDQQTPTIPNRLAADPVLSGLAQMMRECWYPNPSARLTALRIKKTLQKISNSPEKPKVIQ
UniProt Q8IWQ3, sequence (whole entry, looked up): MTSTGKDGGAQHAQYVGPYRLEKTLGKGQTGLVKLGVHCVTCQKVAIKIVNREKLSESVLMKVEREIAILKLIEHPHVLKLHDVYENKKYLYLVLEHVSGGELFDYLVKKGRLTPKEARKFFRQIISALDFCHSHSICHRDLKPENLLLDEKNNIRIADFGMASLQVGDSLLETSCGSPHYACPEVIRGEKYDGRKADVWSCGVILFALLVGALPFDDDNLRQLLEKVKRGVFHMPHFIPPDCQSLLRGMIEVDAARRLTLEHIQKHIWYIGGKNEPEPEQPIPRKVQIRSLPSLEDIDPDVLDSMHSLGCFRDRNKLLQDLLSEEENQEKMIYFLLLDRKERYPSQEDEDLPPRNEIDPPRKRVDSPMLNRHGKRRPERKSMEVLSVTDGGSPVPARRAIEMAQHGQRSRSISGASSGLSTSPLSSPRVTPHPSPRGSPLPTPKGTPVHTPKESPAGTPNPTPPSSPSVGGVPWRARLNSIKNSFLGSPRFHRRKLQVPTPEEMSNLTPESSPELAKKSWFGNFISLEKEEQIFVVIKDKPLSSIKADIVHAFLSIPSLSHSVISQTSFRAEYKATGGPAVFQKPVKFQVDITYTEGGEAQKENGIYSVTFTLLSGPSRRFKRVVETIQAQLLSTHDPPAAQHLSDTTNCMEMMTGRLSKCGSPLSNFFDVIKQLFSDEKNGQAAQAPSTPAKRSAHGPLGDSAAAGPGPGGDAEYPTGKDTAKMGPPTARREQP

Study 1 — host: mouse; sample: microsomes or S9; concentration: 2 µM; time: 0.5 h; quantity: remaining compound
COc1cccc(CN(c2nc3nc(C)c(Cl)c(C)n3n2)S(=O)(=O)c2ccc(Cl)cc2)c1: 1.72%
Cc1cc2c(c(O)c1-c1c(C)cc3c(c1O)C(=O)C(O)C3C(C)C)C(=O)C(O)C2C(C)C (centres unmarked): 62.3%
COC(=O)CN(c1ccccc1OC)S(C)(=O)=O: 31.9%
O=C(Nc1nnc(Cc2ccc3c(c2)OCO3)o1)c1cc2ccccc2o1: 0.345%
COc1ccc(C2=NN(c3nc4ccccc4s3)C(=O)C2)cc1: 32.1%
Cn1nccc1C1CN(Cc2noc3c2CC(C)(C)CC3)CCO1 (centres unmarked): 0.0676%
CC(C)(C)c1ccc(-c2n[nH]c(-c3ccccc3N)nc2=O)cc1: 9.9%

Study 2 — SMILES: O=c1nc(-c2ccccn2)sc2ccccc12; observed: binding; technique: competition with immobilised ligand; concentration: 1 µM; quantity: remaining binding
Tyrosine-protein kinase ABL1, phosphorylated (ABL1, Homo sapiens, UniProt P00519, M351T): 100%
BRSK2 (Homo sapiens, UniProt Q8IWQ3): 100%
DSTYK (Homo sapiens, UniProt Q6XUX3): 88%
ULK3 (Homo sapiens, UniProt Q6PHR2): 100%
ACVRL1 (Homo sapiens, UniProt P37023): 99%
KIT (Homo sapiens, UniProt P10721, D816V): 100%
CHEK1 (Homo sapiens, UniProt O14757): 85%
TNK1 (Homo sapiens, UniProt Q13470): 59%

Study 3 — observed: enzyme activity; mode: inhibitor; concentration: 10 µM; quantity: inhibition
Target: Calcium/calmodulin-dependent protein kinase type II subunit alpha (CAMK2A, Homo sapiens, UniProt Q9UQM7)
UniProt Q9UQM7, sequence (whole entry, looked up): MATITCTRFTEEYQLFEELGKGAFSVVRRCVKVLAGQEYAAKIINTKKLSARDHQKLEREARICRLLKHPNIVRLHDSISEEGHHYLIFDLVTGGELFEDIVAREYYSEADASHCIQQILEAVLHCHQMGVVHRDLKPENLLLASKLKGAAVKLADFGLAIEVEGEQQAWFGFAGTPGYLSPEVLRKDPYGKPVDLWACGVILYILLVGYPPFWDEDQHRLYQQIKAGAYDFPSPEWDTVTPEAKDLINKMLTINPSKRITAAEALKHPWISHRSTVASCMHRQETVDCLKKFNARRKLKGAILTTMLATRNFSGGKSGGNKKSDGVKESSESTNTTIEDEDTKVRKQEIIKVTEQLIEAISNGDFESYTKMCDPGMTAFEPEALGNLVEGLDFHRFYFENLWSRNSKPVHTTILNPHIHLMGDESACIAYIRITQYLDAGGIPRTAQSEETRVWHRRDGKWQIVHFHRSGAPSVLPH
C[C@@H]1CC[C@]2(C(=O)O)CC[C@]3(C)C(=CC[C@@H]4[C@@]5(C)CC[C@H](O[C@@H]6OC[C@H](O)[C@H](O)[C@H]6O)C(C)(C)[C@@H]5CC[C@]43C)[C@@H]2[C@]1(C)O: -5%
COc1cc(O)c(C(=O)/C=C/c2ccc(O)cc2)c(OC)c1: 25%
CC1CNc2c(cccc2S(=O)(=O)N[C@@H](CCCN=C(N)N)C(=O)N2CC[C@@H](C)C[C@@H]2C(=O)O)C1 (some centres unmarked): -3%
COC(=O)c1c(C)cc(OC(=O)c2c(C)cc(O)c(C=O)c2O)c(C)c1O: -18%
Cc1cc(CC(=O)O)n(C)c1C(=O)c1ccc(Cl)cc1: 7%

Study 4 — observed: enzyme activity; mode: inhibitor; concentration: 0.5 µM; baseline: control; quantity: remaining activity
Target: Mitogen-activated protein kinase 3 (MAPK3, Homo sapiens, UniProt P27361)
UniProt P27361, sequence (whole entry, looked up): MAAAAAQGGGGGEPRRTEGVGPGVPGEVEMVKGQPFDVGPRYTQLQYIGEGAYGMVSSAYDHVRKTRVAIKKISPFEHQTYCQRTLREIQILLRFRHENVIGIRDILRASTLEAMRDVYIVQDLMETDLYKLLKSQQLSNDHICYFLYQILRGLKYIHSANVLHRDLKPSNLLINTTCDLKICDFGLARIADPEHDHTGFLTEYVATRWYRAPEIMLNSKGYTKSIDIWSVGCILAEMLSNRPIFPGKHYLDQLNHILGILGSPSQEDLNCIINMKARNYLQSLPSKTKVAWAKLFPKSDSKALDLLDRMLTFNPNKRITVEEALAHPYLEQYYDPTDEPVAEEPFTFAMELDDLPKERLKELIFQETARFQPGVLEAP
Cc1ccc(Nc2nccc(N(C)c3ccc4c(C)n(C)nc4c3)n2)cc1S(N)(=O)=O: 102%
O=c1c2ccccc2[nH]c(=S)n1CCN1CCC(=C(c2ccc(F)cc2)c2ccc(F)cc2)CC1: 105%
O=S(=O)(c1cccc2cnccc12)N1CCCNCC1: 96.1%
N#CC(C#N)=C(N)/C(C#N)=C/c1ccc(O)cc1: 101%
Cc1nc(-c2ccccc2)c(-c2ccncc2)o1: 103%
O=C(O)c1ccc2c3c1cccc3c(=O)n1c3ccccc3nc21: 102%
COc1ccc(C(=O)Nc2sc3c(c2C(N)=O)CCCC3)cc1OC: 95.2%
Cn1sc(=O)n(Cc2ccccc2)c1=O: 90.4%
CC(C)[C@H](CO)Nc1nc(Nc2cc(N)cc(Cl)c2)c2ncn(C(C)C)c2n1: 106%
O=C1NC(=O)C(c2cn(CCCO)c3ncccc23)=C1c1cnccn1: 94.5%
CN(C)c1ccc(C=C2C(=O)Nc3ccccc32)cc1: 102%
COc1cc2nccc(Oc3ccc(NC(=S)NC(=O)c4ccccc4C)cc3)c2cc1OC: 106%
O=C(CCCc1ccc(-c2ccccc2F)cc1)Nc1ccc(O)cc1: 132%
COc1ccc(OC)c2c(=S)c3ccccc3[nH]c12: 103%
COc1ccc(CNC(=O)Nc2ncc([N+](=O)[O-])s2)cc1: 103%

Excerpt of the above (study 4):
O=C(O)c1ccc2c3c1cccc3c(=O)n1c3ccccc3nc21: 102%
CC(C)[C@H](CO)Nc1nc(Nc2cc(N)cc(Cl)c2)c2ncn(C(C)C)c2n1: 106%
O=c1c2ccccc2[nH]c(=S)n1CCN1CCC(=C(c2ccc(F)cc2)c2ccc(F)cc2)CC1: 105%
